{"data": "Experimental data collected from several papers", "note": "Each numbered part is a random draw from the data of one study; scales do not carry over between parts."}
{"data": "Series 1", "target": "Sal-like protein 4, full length isoform A (SALL4, Homo sapiens, UniProt Q9UJQ4, residues 1-1053)", "technique": "universal PBM", "form": "double-stranded DNA, one strand shown", "sample": "in vitro", "concentration": "600 nM", "setting": "8-mer, flanks averaged, mean of replicates", "reading": "higher = stronger binding", "sequence of UniProt Q9UJQ4 (whole entry, looked up)": "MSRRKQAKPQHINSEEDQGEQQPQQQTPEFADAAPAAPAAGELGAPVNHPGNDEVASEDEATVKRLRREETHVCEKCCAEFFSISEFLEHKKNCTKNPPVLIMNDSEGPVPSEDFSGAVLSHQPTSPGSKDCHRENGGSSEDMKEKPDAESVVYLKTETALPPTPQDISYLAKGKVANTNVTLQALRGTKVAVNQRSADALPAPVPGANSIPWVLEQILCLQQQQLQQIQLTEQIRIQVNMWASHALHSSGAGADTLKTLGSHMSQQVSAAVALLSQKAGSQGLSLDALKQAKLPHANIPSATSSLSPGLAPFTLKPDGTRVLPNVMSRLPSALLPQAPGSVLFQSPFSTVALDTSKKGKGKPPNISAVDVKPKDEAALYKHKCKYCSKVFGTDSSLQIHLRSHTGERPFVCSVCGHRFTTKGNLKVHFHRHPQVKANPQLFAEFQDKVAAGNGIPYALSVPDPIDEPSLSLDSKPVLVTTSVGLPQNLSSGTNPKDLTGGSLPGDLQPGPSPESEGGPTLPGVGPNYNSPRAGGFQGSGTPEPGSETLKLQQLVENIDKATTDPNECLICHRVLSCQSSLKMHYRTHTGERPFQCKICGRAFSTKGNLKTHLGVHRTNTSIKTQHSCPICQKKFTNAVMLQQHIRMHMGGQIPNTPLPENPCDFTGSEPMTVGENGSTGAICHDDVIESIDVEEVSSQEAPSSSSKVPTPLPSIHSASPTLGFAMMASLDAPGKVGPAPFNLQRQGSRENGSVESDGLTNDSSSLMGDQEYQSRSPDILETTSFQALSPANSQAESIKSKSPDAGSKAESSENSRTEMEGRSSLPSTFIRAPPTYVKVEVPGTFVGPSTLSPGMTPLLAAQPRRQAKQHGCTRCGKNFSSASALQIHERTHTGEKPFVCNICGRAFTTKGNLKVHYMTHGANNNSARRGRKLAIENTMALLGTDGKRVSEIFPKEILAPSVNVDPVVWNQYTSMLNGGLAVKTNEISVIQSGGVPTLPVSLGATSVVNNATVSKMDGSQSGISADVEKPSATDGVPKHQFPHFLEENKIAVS"}
{"Sequence": "CCGATTTA", "E-score": 0.241}
{"Sequence": "CATTGGGG", "E-score": -0.129}
{"Sequence": "GTATCCAC", "E-score": -0.0951}
{"Sequence": "GACAGGCA", "E-score": -0.145}
{"Sequence": "ACTGTACC", "E-score": -0.0549}
{"Sequence": "ACATAGCC", "E-score": -0.0832}
{"Sequence": "ACGACTAA", "E-score": -0.0381}
{"Sequence": "ATTCTCCG", "E-score": -0.14}
{"Sequence": "GAGCGACC", "E-score": -0.241}
{"Sequence": "CATAGCAA", "E-score": 0.168}
{"Sequence": "CAGCTGCG", "E-score": -0.317}
{"Sequence": "CCTGAAAA", "E-score": 0.158}
{"Sequence": "ACATAACC", "E-score": 0.239}
{"Sequence": "ACTACGTG", "E-score": -0.218}
{"Sequence": "TGCTCACA", "E-score": -0.0825}
{"Sequence": "TGAAAGCA", "E-score": 0.216}
{"data": "Series 2", "target": "RNA binding protein fox-1 homolog 2, RRM domain, GST-SBP tag (RBFOX2, Homo sapiens, UniProt O43251-10, residues 100-194)", "technique": "RNA Bind-n-Seq", "form": "RNA", "sample": "in vitro", "concentration": "365 nM", "setting": "natural RNA segment, single round, ends assumed", "reference": "no-protein control", "reading": "higher = stronger binding", "shared flanks, not repeated": "GGGAGUUCUACAGUCCGACGAUC … UGGAAUUCUCGGGUGCCAA", "Target sequence (chain)": "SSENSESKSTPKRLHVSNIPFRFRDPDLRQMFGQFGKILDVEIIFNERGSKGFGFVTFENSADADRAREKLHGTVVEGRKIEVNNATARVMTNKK"}
{"Sequence": "CCCGACUACCCUAUUUAUUAUUGUAGCUAUUUAUUUAUUUAUUGAGGAUGUGCCCCGAGCGCACCCCCUUCCCACCCUGUACAUAGCUCCACCCAGCUCGGCCGUGGUGU", "RBNS enrichment (R)": 0.594}
{"Sequence": "UCCUUUCUUUCUUCCCUCUGUUAUUCAUUCAUCAAGCAGGUUAAAGCCAUUGUGCUAAGAUCUAAUCUGAGGACACUAUAAUGGCCCUGUCGUCAGGGAAGCCCGUGAUC", "RBNS enrichment (R)": 0.435}
{"Sequence": "AAGUUUUAAAAUAGCUUUAGUUUUUAAAGUAAACUGGAUUUGUGGACCUUAAAGUUACUGAGUUUAAACUACAAAUUGUAACAUCAUUACUGAACAUGUCCGCAUCAACC", "RBNS enrichment (R)": 0.353}
{"Sequence": "GGAUGCUGGGUGGGUGUGUGGUCCAUGUUCAGCGUUCUAGCAACACGUGUGUGUGUGUGUGUGUAAAGGCUAUGCAGCCAAAAUACCAUCUGGCCAGACGGGCCCACCCA", "RBNS enrichment (R)": 0.414}
{"Sequence": "UGAUUCCCACAGAAAACGUCCUAAGACUUCUAGUCGUCAAGAAGACCUGAAGCAUCCUUGACCUUCAUUUUGCUCAGGACUAUUCACUGUUUCCCUUCCUUGAGGAAGCC", "RBNS enrichment (R)": 0.27}
{"Sequence": "UUGUUCCUAUCCAGGUUCAGGGCCUUCAGGGGGCCUCUUUUCAUUUUCUCCCACAGGCCUCUCUUUCUUUCUAGGUUGCUGGGGAGAAAUGGGUACCCUAUGAUCCCCCU", "RBNS enrichment (R)": 0.395}
{"Sequence": "AGACUUAAAAAGACUGCCCUUGACUCCUUGACACUAUAUCAAGUGCUGUGUAAGAGAGACUGGUCCGUGGGACCAGCCACACACAUUACCUCUUCCACUUGAAAUGACUC", "RBNS enrichment (R)": 0.3}
{"Sequence": "UGGCAUUUUUCUCUAGCGUUGUGGUGCCACCUUCCCUUCUUGUCCCAAGGUUAUAAGGCCUUGUCUUUCUCUUUGGAAUCAUAAAGUGGAACAGAGUCCCCAGAACUCAU", "RBNS enrichment (R)": 0.26}
{"Sequence": "AAGGAGAAAAUAGAUAAUUUACAAGAUAUUAUUAAUUUUUAUUUAUUUUUCUUGGGAAUUGAAAAAAAUUGAAAUAAAUAAAAAUGCAUUGAACAUCUUGCAUUCAAAAU", "RBNS enrichment (R)": 2.64}
{"Sequence": "CAUGUGCCACCCCCUUUCCUAACAGACUUGUCCAAGUGCUUGGCGUGGGACCCAUGACCAAAGCCCAGGAUGGCUUGGUGGGAGUGUCCCUGCUGCAUCUGCAUGAAGCC", "RBNS enrichment (R)": 2.87}
{"Sequence": "CUCCCAGGCAGUGCUCAUGCGCUGGCCGUCGGGGGAGGCAGGGGCACAGCCUCCAUGUGCGCGCGCGUGUGGAGCUGUGUGCACCGCAUGUGUGCUUUCCACAGGGGCGU", "RBNS enrichment (R)": 0.376}
{"Sequence": "AUUCCUAAUAUUUUGUUCUGCAAAUUAAUGUAUAAUUUGAGGUGAAAUUCAGUUAUAAAGUCAAGGACGAAUUUGCACAGUGAUAUAUUUCUAUGUGUAUGCAAGUACAA", "RBNS enrichment (R)": 0.363}
{"data": "Series 3", "target": "Histone acetyltransferase KAT6A, winged helix 2, GST fusion (KAT6A, Homo sapiens, UniProt Q92794, residues 85-181)", "technique": "protein binding microarray", "form": "double-stranded DNA, one strand shown", "sample": "in vitro", "concentration": "not given", "setting": "8-mer, flanks averaged, mean of 2 arrays, mostly near background", "reference": "not given", "reading": "higher = stronger binding", "Residues (chain)": "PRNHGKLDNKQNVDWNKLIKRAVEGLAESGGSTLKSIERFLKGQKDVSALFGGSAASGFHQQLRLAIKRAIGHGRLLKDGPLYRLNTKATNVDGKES"}
{"Sequence": "ACAACTTC", "E-score": -0.0449}
{"Sequence": "AAAGGTGA", "E-score": -0.103}
{"Sequence": "GCACATGC", "E-score": 0.104}
{"Sequence": "CCTACGCA", "E-score": -0.127}
{"Sequence": "ACACGGAG", "E-score": 0.128}
{"Sequence": "ACAAACCG", "E-score": -0.0394}
{"Sequence": "ACTTCACT", "E-score": -0.0764}
{"Sequence": "CACATGCG", "E-score": 0.000205}
{"Sequence": "CGCTCCTA", "E-score": 0.0606}
{"Sequence": "CTCACATA", "E-score": -0.18}
{"Sequence": "AGGGGCCC", "E-score": 0.056}
{"Sequence": "GTAATTTA", "E-score": -0.00752}
{"Sequence": "AGCATAAA", "E-score": -0.0466}
{"Sequence": "CAAGTACG", "E-score": -0.213}
{"Sequence": "GGTGTCTA", "E-score": -0.0466}
{"Sequence": "ACCATAGC", "E-score": -0.133}
{"Sequence": "ATCTGCCG", "E-score": 0.134}
{"Sequence": "CCACAACC", "E-score": 0.146}
{"Sequence": "GCACGCAC", "E-score": -0.0348}
{"data": "Series 4", "target": "Ras GTPase-activating protein-binding protein 1, C-terminal RGG region (G3BP1, Homo sapiens, UniProt Q13283)", "technique": "RNA Bind-n-Seq", "form": "RNA", "sample": "in vitro", "concentration": "1 µM", "setting": "whole 134-nt RNA, ends assumed", "with": "150 mM KCl", "reference": "input library", "reading": "higher = stronger binding", "shared flanks, not repeated": "GGGAGUUCUACAGUCCGACGAUC … UGGAAUUCUCGGGUGUCAAGG", "sequence of UniProt Q13283 (whole entry, looked up)": "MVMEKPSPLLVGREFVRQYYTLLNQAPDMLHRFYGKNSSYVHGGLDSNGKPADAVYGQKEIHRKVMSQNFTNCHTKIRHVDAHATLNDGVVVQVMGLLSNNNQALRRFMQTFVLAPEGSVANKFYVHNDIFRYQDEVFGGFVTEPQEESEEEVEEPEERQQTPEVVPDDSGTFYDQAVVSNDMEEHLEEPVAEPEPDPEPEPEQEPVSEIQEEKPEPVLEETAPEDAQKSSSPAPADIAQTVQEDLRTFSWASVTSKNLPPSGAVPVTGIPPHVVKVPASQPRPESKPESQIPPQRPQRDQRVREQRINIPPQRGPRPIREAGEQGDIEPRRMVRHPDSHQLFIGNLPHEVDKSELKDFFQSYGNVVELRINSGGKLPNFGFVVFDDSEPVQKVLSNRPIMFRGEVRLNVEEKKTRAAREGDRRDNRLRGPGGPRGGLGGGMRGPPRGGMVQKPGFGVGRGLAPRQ"}
{"Sequence": "GCAGGAAGUAAAAACAGAUGGAAAUGCUUCGGAUAGUGGCAGGGGUGGGGGUUGCUAAGGAAAGGGUGGGAUGGGAGUGGGUAAAGAGUU", "log2 enrichment": 1.6}
{"Sequence": "UGGCCCUGGUGGCACGCGGGGAGGAAGAGGUGGCCUCAUGGAUCGUGGUGGUCCCGGUGGAAUGUUCAGAGGUGGCCGUGGUGGAGACAG", "log2 enrichment": 1.9}
{"Sequence": "UGGCCCUGGUGGCAUGCGGGCAGGAAGAGGUGGCCUCAUGGAUCGUGGUGGUCCCGGUGGAAUGUUCAGAGGUGGCCGUGGUGGAGACAG", "log2 enrichment": 2.33}
{"Sequence": "CUCAAGUCCUGUGCUACACAUCGUAUGUACCGAAUCGGUGGUUUUUGGUUUGGAAAGUAUUAUGUUACGCCGUUCGGAUCUGCACUUCCA", "log2 enrichment": -1.11}
{"Sequence": "CACAGACAACACGCACCCACACAGACACAGAGGGAAGGGGUUGGGAUGGGGACAGGGAAAACAGCAGGGCGGGGUAGGACCCCAGCCCCU", "log2 enrichment": -0.326}
{"Sequence": "UGGGAGGUGGAUUUUGUUUAUUUUUUUAGCUCAUUUCCAGGGGUGGGAAGUUUUUUUUAAUAUGUGUCAUGAAUAAAGUUGUUUUUGAAA", "log2 enrichment": 3.82}
{"Sequence": "UCCUGUGCUACACAUCGUAUGUACCGAAUCGGGCCCCCCGGGCCCCCCGGGCCCCCCGGGAAAGUAUUAUGUUACGCCGUUCGGAUCUGC", "log2 enrichment": -1.13}
{"Sequence": "AAGUCCUGUGCUACACAUCGUAUGUACCGAAUCGGUUUUUGGGUUUUUGGUUUUUGGAAAGUAUUAUGUUACGCCGUUCGGAUCUGCACU", "log2 enrichment": -1.48}
{"Sequence": "UGGGAGGUGGAUUUUGUUUAUUUUUUUAGCUCAUUUCCAGGGGUGGGAAUUUUUUUUUAAUAUUUGUCAUGAAUAAAGUUGUUUUUGAAA", "log2 enrichment": 2.62}
{"Sequence": "GCAGGAAAUAAAAACAAAUGGAAAUGCUUCGGAUAGUGGCAGGGGUGGGGGUUGCUAAGGAAAGGGUGGGAUGGGAGUGGGUAAAGAGUU", "log2 enrichment": 2.1}
{"data": "Series 5", "target": "Myc proto-oncogene protein, bHLH-zipper, MAX partner unstated (MYC, Homo sapiens, UniProt P01106, residues 368-449)", "technique": "protein-binding microarray", "form": "double-stranded DNA, one strand shown", "sample": "in vitro", "concentration": "not given", "setting": "k-mer, scored over probes, only values ≥0.25", "reading": "higher = stronger binding", "sequence of UniProt P01106 (368-449, looked up)": "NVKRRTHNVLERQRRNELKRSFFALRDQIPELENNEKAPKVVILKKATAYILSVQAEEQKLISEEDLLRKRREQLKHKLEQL"}
{"Sequence": "ACCCGCGC", "E-score": 0.257}
{"Sequence": "CTCAGCAC", "E-score": 0.283}
{"Sequence": "ACATGGAT", "E-score": 0.292}
{"Sequence": "AGGCATGG", "E-score": 0.385}
{"Sequence": "AAAACACG", "E-score": 0.29}
{"Sequence": "GGGCACGA", "E-score": 0.279}
{"Sequence": "ACGTGCAT", "E-score": 0.428}
{"Sequence": "AGCGTGGA", "E-score": 0.357}
{"Sequence": "GGGTGGTA", "E-score": 0.25}
{"Sequence": "ACATTGTG", "E-score": 0.297}
{"Sequence": "ACATGTTC", "E-score": 0.31}
{"Sequence": "ACCCACAT", "E-score": 0.269}
{"Sequence": "CACCTGCG", "E-score": 0.362}
{"Sequence": "AACCATGC", "E-score": 0.413}
{"Sequence": "CATGAGGG", "E-score": 0.434}
{"Sequence": "CATGGACC", "E-score": 0.33}
{"Sequence": "CATGGAAA", "E-score": 0.257}
{"Sequence": "AGGCGGGG", "E-score": 0.363}
{"Sequence": "CGTGTCGA", "E-score": 0.35}
{"Sequence": "GGCACACC", "E-score": 0.254}
{"Sequence": "CGCACCGC", "E-score": 0.285}
{"Sequence": "ATCGTGGG", "E-score": 0.254}
{"Sequence": "CACCCATG", "E-score": 0.353}
{"Sequence": "ATGTGTTC", "E-score": 0.272}
{"Sequence": "CCACGTTA", "E-score": 0.383}
{"note": "Repeated from above (series 1):"}
{"Sequence": "CAGCTGCG", "E-score": -0.317}
{"Sequence": "CCTGAAAA", "E-score": 0.158}
{"Sequence": "CATAGCAA", "E-score": 0.168}
{"Sequence": "GACAGGCA", "E-score": -0.145}
{"Sequence": "GTATCCAC", "E-score": -0.0951}
{"Sequence": "ACTGTACC", "E-score": -0.0549}
{"Sequence": "CCGATTTA", "E-score": 0.241}
{"Sequence": "ACTACGTG", "E-score": -0.218}
